Published values from different studies.
Several values in a cell are separate wells, animals, samples, runs or records.
Target: Prostaglandin G/H synthase 2 (PTGS2, Homo sapiens, UniProt P35354)

Compound = CCOC(=O)[C@](CC)(CCCSCCOCCOCCNC(=O)c1ccc(-c2c3ccc(=N)c(S(=O)(=O)O)c-3oc3c(S(=O)(=O)O)c(N)ccc23)c(C(=O)O)c1)NC(=O)c1ccc(C2CC2)c(Cc2ccc(F)cc2)n1; assay = enzyme activity, inhibitor; setting = 10 µM; measurement = inhibition; result = -5%
Compound = O=C(COC(=O)c1ccccc1Nc1cccc(C(F)(F)F)c1)Nc1cccc(C(F)(F)F)c1; scale = baseline: COX-1 IC50 over COX-2 IC50; measurement = selectivity ratio; result = 5.68
Compound = O=C(O)c1ccc(-c2nc(-c3ccccc3Cl)c3sccn23)cc1; assay = radioligand binding, safety screen panel; setting = 10 µM; scale = baseline: control; measurement = specific binding; result = 112% and 105%
Compound = Cc1cc(-c2ccc3ccccc3c2)nnc1NCCN1CCN(C)CC1; assay = enzyme activity; setting = concentration not given; measurement = inhibition; result = negative
Compound = COc1ccc(F)cc1S(=O)(=O)Nc1cnc2c(c1)C(=O)NCCO2; assay = enzyme activity, inhibitor; setting = 10 µM; measurement = inhibition; result = 6%
Compound = Cc1cc(Nc2nc(C[C@@]3(C(=O)O)CCN(Cc4cccc(Cl)c4F)[C@H](C)C3)cc(C)c2F)[nH]n1; assay = enzyme activity, inhibitor; setting = 10 µM; measurement = inhibition; result = -15.8%
Compound = C[C@@H]1COCCN1c1nc(NCc2cccnc2C(F)(F)F)c2cccnc2n1; assay = inhibitor; measurement = IC50; result = 44 µM
Compound = Cc1ccc2c(n1)c(-c1cccc(S(C)(=O)=O)c1)c(C)n2C/C(F)=C/CN; assay = cell-free assay; setting = 10 µM; measurement = inhibition; result = -18%
Compound = CS(C)(=O)=Nc1ccc(-c2ccc(-c3nc4cc(O[C@@H]5CO[C@H]6[C@@H]5OC[C@H]6O)[nH]c4cc3F)cc2)cc1; assay = enzyme activity, inhibitor; setting = 10 µM; measurement = inhibition; result = 27%
Compound = N[C@H](C(=O)N1CCCC1)C1CCN(c2nccc3c(-c4ncc(Cl)cc4Cl)cccc23)CC1; assay = enzyme activity, inhibitor; setting = 10 µM; measurement = inhibition; result = 23%
Compound = CCc1nnc(-c2c(OC)cc(-c3cnc4cc(-c5cnn(C)c5)ccn34)cc2OC)o1; assay = radioligand binding; setting = 10 µM, SafetyScreen44 mean; scale = lower = stronger displacement; measurement = remaining binding; result = 95.4%
Compound = CCN(CC)CCOc1ccc(-c2nnn(Cc3ccc(OC)cc3)c2N)cc1; assay = enzyme activity; setting = 10 µM; measurement = inhibition; result = -5.68%
Compound = C[C@H](NCc1ccc(-c2ccc(C(F)(F)F)cc2)cc1)C(N)=O; assay = enzyme activity, SafetyScreen panel; setting = 1 µM, with: 0.30 µM arachidonic acid; measurement = inhibition; result = -11%
Compound = C/C(=N\OCCCN1CCCCC1)c1ccc(C(F)(F)F)cc1; assay = antagonist, FI; setting = 10 µM; measurement = inhibition; result = 13.9%
